# Experimental data gathered from unrelated publications.
# A part holds a random share of what one study measured. Changes are numbered by the printed parent chain.
# UniProt O00762, sequence (whole entry, looked up): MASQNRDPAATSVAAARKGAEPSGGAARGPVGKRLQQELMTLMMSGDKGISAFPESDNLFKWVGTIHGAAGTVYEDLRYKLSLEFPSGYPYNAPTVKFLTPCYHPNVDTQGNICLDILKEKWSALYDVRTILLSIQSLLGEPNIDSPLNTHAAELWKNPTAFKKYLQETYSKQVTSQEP
# UniProt Q9NPD8, sequence (whole entry, looked up): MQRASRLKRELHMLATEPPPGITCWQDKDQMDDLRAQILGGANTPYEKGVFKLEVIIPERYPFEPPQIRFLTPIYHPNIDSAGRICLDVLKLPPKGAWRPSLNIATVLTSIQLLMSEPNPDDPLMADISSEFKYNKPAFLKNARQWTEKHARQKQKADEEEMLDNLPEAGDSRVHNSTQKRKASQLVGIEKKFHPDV
# UniProt Q9H832, sequence (whole entry, looked up): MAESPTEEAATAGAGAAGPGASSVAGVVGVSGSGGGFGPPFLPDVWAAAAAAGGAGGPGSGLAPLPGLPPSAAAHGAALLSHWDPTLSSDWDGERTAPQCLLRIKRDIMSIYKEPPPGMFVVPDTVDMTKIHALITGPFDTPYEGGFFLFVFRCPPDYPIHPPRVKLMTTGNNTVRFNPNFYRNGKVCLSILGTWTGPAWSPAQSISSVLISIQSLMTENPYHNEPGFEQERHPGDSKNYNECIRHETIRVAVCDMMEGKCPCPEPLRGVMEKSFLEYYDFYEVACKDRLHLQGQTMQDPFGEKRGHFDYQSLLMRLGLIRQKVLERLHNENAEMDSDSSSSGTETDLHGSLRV
# UniProt Q712K3, sequence (whole entry, looked up): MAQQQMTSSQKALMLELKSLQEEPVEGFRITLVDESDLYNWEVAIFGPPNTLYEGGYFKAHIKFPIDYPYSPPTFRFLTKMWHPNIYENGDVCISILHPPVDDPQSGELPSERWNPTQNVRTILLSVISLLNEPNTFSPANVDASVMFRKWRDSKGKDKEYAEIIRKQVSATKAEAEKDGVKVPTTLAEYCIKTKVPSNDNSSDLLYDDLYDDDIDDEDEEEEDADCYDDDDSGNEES
# UniProt P63146, sequence (whole entry, looked up): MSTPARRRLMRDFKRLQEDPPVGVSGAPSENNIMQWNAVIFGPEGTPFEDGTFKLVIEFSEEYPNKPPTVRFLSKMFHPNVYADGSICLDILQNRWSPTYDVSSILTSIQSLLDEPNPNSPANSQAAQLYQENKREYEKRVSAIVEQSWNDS
# UniProt Q969T4, sequence (whole entry, looked up): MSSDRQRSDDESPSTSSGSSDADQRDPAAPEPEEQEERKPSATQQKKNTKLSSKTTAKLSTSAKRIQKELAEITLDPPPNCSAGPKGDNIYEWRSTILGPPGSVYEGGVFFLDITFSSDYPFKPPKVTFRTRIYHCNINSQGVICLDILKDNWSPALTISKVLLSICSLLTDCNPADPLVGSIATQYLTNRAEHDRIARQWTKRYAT

# Study 1
# Molecule: QLRRLQEERTCKVCLDRAVSIVFVPCGHLVCAECAPGLQLCPICRAPVRSRVRTF (BIRC7 RING domain (UniProt Q96CA5))
# Technique: yeast two-hybrid
# Medium: yeast
# Setting: mostly zero background
# Baseline: not given
# Direction: higher = stronger interaction
target,lacZ reporter activity
UBE2I UBC core domain (UniProt P63279),0
UBE2E3 UBC core domain (UniProt Q969T4),0
UBE2C UBC core domain (UniProt O00762),0
UBE2T UBC core domain (UniProt Q9NPD8),0
UBE2B UBC core domain (UniProt P63146),0
UBE2Z UBC core domain (UniProt Q9H832),0
UBE2R2 UBC core domain (UniProt Q712K3),0

# Study 2
# Target: CCND1, cyclin fold, Cln2 fusion (human)
# Technique: yeast growth competition, sequencing
# Medium: yeast
# Setting: weak parent motif
# Baseline: not given
# Direction: higher = stronger binding
# Starting sequence: CDC6 docking peptide (human); TLKGRRLVFDNQL; partner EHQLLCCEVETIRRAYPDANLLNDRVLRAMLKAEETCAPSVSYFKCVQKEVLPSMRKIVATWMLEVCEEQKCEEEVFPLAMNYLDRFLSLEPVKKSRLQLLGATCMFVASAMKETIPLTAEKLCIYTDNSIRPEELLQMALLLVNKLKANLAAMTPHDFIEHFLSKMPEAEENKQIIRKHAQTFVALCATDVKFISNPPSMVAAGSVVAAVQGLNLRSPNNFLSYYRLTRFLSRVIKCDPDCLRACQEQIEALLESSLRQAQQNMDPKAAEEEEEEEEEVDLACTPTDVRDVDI
Change,normalised enrichment score
V8F,0.2
K3G,-0.153
G4T,-0.383
Q12T,0.472
Q12I,0.608
T1N,-0.0281
G4P,0.483
T1M,0.108
L13N,0.293
L13G,0.555
F9S,-0.0303
Q12C,0.0816

# Study 3
# Target: RING finger protein unkempt homolog, zinc fingers 1-6, SBP tag (UNK, Homo sapiens, UniProt Q9C0B0, residues 30-357)
# UniProt Q9C0B0, sequence (30-357, looked up): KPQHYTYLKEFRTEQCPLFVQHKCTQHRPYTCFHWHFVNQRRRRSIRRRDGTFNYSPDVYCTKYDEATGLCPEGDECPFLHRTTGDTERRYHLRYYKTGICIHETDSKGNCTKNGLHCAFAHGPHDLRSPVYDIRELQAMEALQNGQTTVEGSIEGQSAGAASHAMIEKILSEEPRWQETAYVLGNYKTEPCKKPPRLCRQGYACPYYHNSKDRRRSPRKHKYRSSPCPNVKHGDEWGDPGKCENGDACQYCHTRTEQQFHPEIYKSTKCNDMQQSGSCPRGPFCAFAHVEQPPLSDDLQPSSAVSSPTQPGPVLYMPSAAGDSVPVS
# Technique: RNA Bind-n-Seq
# Form: RNA
# Medium: in vitro
# Tested at: 100 nM
# Setting: RNA with constant flanks, vertebrate orthologous sites, ends assumed
# Baseline: input RNA pool
# Direction: higher = stronger binding
# Constant ends, left off below: GGGAGUUCUACAGUCCGACGAUC … CAACAGAGGAUUGAGCAUCA
Strand,bound/input enrichment [ratio]
AUCCUCUCACACUGUCCCCGGCCAGGGUUGAGGACCAGAUGUUUCACCAAGGACCUGCAUUUCACACAGUUUUUAAAAUUGUCAUACAGAUGUGACGAAAACAGCAUCUCAGAGCCGAGG,0.257
GUGAGGGUCUACUGACCACUCACUGUUAUGUCUGGUAUCUGUAAACACUCUUUUUGUUCUUAGUCUUUUUCUUGUAUAAUUGAUGUUCUUUAAAAUUGUUAACGUAUAACAGGGCUUAUG,2.12
CAGUAGAAUUACACUAAUACUGAAGUUAAAAGGAUAUCCAAGGUGAUGAUAAAGUGUGUGUUGGUAGUUACUAAAAAAACUUUAGCUGUUAUUGCCUUGUAUUUCUAUCCCUUGUUUCAG,0.321
CUACUGUAAUCAACUCAGGGCAGUAUUCUCGAUAUCCUUACAAUAACCUAAAUCAGGGAUUAGUUAACAAUACAGGGAUGAAUCAAAAUUUAGGCCUUACGAAUAAUAAUCCAAUAAAUC,1.37
UGGGUUACUCCUAUUAUUAUCAAGUAGCUGGAAUUGUGAAGGUCGGAGUAGUUAGAUCUUUAGCUUUUGUUCCUUAUUUUUUUGUAUUACUAUCCAUGUGUAUAAAUUAUUGAUCAUGUU,1.83
GCAAUAAAAUUGGAUGAAAUUUAUAAACAAUUCAAGGCAGUGACUUAAGCUUCAUAAGUAUUGUUGGUUUUUAAGUGGUUUACCUUUAUUUAAGCUGCUGCCCUGUGUUAAAUAAUACUC,0.433
UCCCCUAUUACCUGUAAAAUAGAACUUUUUUAAAUUGUGUUGCCACCACUCCUAAAAAUUUAGCAAUAUUUAAAUAAAACACUAAUGAAGUAAGAAAUUUUGCUUCUUAUUUUACAACCA,2.84
GAUGUAUUUAUACUGGCCAAACAUUUUUGACUUGUAUUUCUUUGUCCUUUUUUGGUAGUUCUCGUUGUUACUCGCACCAUUUUUAUGUCUCCUUCACUGAAGGGCUAGAGUUUUAACUUU,0.394
AUUGUGGCUGCUUUUUACCGCCUCAAUGAGGUAAAGUCUCCCUUGGCAUUUGGUUGGUACUGGAGCCACUCAUACCUAAUAAGUCCUUCUGCUUUUCAUUUCUUUCACACUCAUAGUCAU,0.812
AUUUAAAAUGUAGUUAGUUAUAUUUAAUGACCUCAUUCCUAAGUUCCUUUUUCGUUAAUGUAGCUUUCAUUUCUGUUAUUGCUGUUUGAAUAAUAUGAUUAAAUAGAAGGUUUGUGCCAG,0.572
ACUGCUGUUAAUGCACUGUUUCAGCCCUUGUAUGAGUUUAGUGUAAUCUAGGAAAUUUUAUAGUUUUAUUUUAAUGAAUACCGGAUUGAUGCACAGUAGUGGGAAGUUCAUUGUCUUUUA,1.29

# Study 4
# Target: ABI1, truncated, D143A, DHFR fusion (Arabidopsis thaliana)
# Technique: DHFR PCA, deep sequencing
# Medium: yeast
# Setting: methotrexate growth selection, single substitutions
# Together with: (+)-ABA 1.4 µM
# Baseline: wild-type fitted maximum
# Direction: higher = stronger binding
# Starting sequence: PYL1, truncated, DHFR fusion (Arabidopsis thaliana); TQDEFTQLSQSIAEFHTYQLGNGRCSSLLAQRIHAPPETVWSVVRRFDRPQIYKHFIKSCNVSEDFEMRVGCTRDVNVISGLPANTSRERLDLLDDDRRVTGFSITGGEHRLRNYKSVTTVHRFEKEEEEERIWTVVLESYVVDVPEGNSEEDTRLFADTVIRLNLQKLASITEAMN
Change,relative binding score [%]
G148E,1.05
V161L,60.5
Y53Q,-5.15
T119H,-2.18
V43Y,1.46
V100T,4.66
T86S,69.9
G107N,1.42
H16M,10.8
Q10P,60.3
V137D,-0.873
H110Q,21.6
R74C,7.26
W134R,15.9
K116R,62.9
D75K,56.1

# Study 5
# Target: Interferon regulatory factor 5, full length, phosphomimetic (IRF5, Homo sapiens, UniProt Q13568-2, residues 1-514, S451D/S453D/S456D/S462D)
# Technique: protein-binding microarray
# Form: double-stranded DNA, one strand shown
# Medium: in vitro
# Tested at: 940 nM top
# Setting: 60-bp whole probe
# Together with: salmon DNA 0.4 mg/ml
# Baseline: random background probes
# Direction: higher = stronger binding
# Constant ends, left off below: GCCTAGCAC … GTCTTGATTCGCTTGACGCTGCTG
Strand,fitted relative affinity [z-score]
GCCGAACTGGGGTTTCGAGACGTGCTA,2.49
GACGAACTGGGGTATCGAAACGTGCTA,1.49
TTAGGTTTCGGTTGCGGTTAGTGCTAG,15.4
GACGATCTCGGTTTCGAGACGTGCTAG,4.08
TTAGGTCTCGGTATCGCTTAGTGCTAG,5.69
TCATATACACACTATAGTACTGTGCTA,0.642
AATCATTCACCTGTCGTTGAGTGCTAG,-0.145
GACGATATCGGGACTGCAGACGTGCTA,-0.16
GACGGACTGGGAATCGGGACGTGCTAG,-0.529
GACGATCTGAGTATCGAGACGTGCTAG,1.54
TTAGGTAGCGGTTTCGGTTAGTGCTAG,6.93
TTAGGACTGCTTTTACTTTAGTGCTAG,0.24
GACGGACTGGGGACTGGGAACGTGCTA,-0.147
TTAGGTTTACTTTTCCTTTAGTGCTAG,0.395
GACGAACAGGGGTTTCGAGACGTGCTA,1.86
TTAGGTTTGCTTCTCCTTTAGTGCTAG,0.159
GACCGTTTCCTTATCCTGACGTGCTAG,1.27
GTTACTTTCTACTTCTCTTTGTGCTAG,3.96
GACGATATCACTCTCGAGACGTGCTAG,1.5
TCAAATTTTAGTAACACACTGTGCTAG,-0.144
GACGACTTCAGTCTCGAGACGTGCTAG,0.77
TTAGAACTTGGGACTGGATTAGTGCTA,-0.582
ACCTTTGTTTTTTTCTATATGTGCTAG,2.14
TTAGGTTTCGACATTGGGTTAGTGCTA,8.13
TTAGTACTGGACACTGGGTTAGTGCTA,-0.445
